{"data": "Published values collected from several papers", "note": "Lines come from different studies, so protocols differ. Several values in a cell are separate wells, animals, samples, runs or records. ± marks the error that the study gave."}
{"Compound": "CCCC[C@H](NC(=O)CNC(=O)CNC(=O)CN1CCN(CC(=O)O)CCN(CC(=O)O)CCN(CC(=O)O)CC1)C(=O)N[C@H]1CC(=O)NCCCC[C@@H](C(N)=O)NC(=O)[C@H](Cc2c[nH]c3ccccc23)NC(=O)[C@H](CCCNC(=N)N)NC(=O)[C@@H](Cc2ccccc2)NC(=O)[C@H](Cc2c[nH]cn2)NC1=O [copper-64 labelled]", "test system": "female C57 mouse, B16/F1 melanoma", "setting": "intravenous, 0.037 MBq, 2 h", "how to read": "reference: tumour over blood", "quantity": "uptake ratio", "result": 5.05}
{"Compound": "COc1ccc(C=NCCCN(C)CCN(C)CCCN=Cc2ccc(OC)cc2[O-])c([O-])c1.[67Ga+3]", "test system": "rat", "setting": "intravenous, 1 min", "how to read": "reference: heart over liver", "quantity": "tissue uptake ratio", "result": "1 ± 0.2"}
{"Compound": "CC(CCCOC(=O)CCC[N+](C)(C)C)C1CCC2C3CCC4CC(OC(=O)CCC[N+](C)(C)C)CCC4(C)C3CC(OC(=O)CCC[N+](C)(C)C)C12C (centres unmarked)", "test system": "mouse red blood cells", "setting": "1 h, 37 °C", "quantity": "HC50", "result": "> 1000 µg/mL"}
{"Compound": "Cc1ccc(OCC(=O)O)cc1", "test system": "Sprague-Dawley rat, male, plasma", "setting": "oral, 10 mg/kg/day of parent drug, day 1, 90-day repeated dosing", "quantity": "t1/2", "result": "1.63 h"}
{"Compound": "C[C@@H]1O[C@@H](O[C@@H]2[C@@H](O)[C@H](O)[C@@H](CO)O[C@H]2c2c(O)cc(O)c3c(=O)cc(-c4ccc(O)cc4)oc23)[C@H](O)[C@H](O)[C@H]1O", "assay": "in situ intestinal perfusion", "test system": "Sprague-Dawley rat, small intestine", "setting": "dose not given, 3 h", "quantity": "Papp", "result": "0.031 to 0.093 ×10⁻⁶ cm/s"}
{"Compound": "CN[C@@H]1[C@H](O)[C@H](NC)[C@H]2O[C@]3(O)[C@H](O[C@@H]2[C@H]1O)O[C@H](C)C[C@@]3(O)CNCCc1ccc(F)cc1", "test system": "male BALB/c mouse, plasma", "setting": "intravenous, 10 mg/kg", "quantity": "C0", "result": "38000 to 74000 ng/mL"}
{"Compound": "CCCCCCCCCCCCCNCC(=O)N(CC(=O)N(CCCCN)CC(=O)N(CCN)CC(=O)N(CC(N)=O)CC1CCCO1)CC1CCCO1 (centres unmarked)", "assay": "preparative RP-HPLC C18", "test system": "water to acetonitrile gradient", "setting": "0.05% TFA in eluent", "how to read": "higher = more hydrophobic", "quantity": "acetonitrile at elution", "result": "67.3%"}
{"Compound": "Cc1cc(O)cc(O)c1C(=O)c1c2c3c(c(O)cc(C)c3oc1=O)C(=O)c1c(O)cc(O)cc1-2", "test system": "Caco-2", "setting": "400 µM, 3 h, pH 7.4", "quantity": "Papp A→B", "result": "0.58 ×10⁻⁶ cm/s"}
{"Compound": "COC(=O)c1ccc(-c2cn(Cc3cc(Cl)ccc3O[11CH3])nn2)cc1", "assay": "PET, Logan plot, t*=40 min", "test system": "rhesus monkey, brain WB", "setting": "dose not given", "quantity": "distribution volume", "result": "0.434 mL/cm³"}
{"Compound": "CCN(CC)c1ccc2c(-c3ccccc3C(=O)OCCOCCOCC[18F])c3ccc(=[N+](CC)CC)cc-3oc2c1", "test system": "rat, muscle", "setting": "60 min", "quantity": "tissue uptake", "result": "0.32 ± 0.05 %ID/g"}
{"Compound": "CC(C)c1cnc(-c2cc(Cl)ccc2F)cc1Nc1ccncc1C(=O)NC(CO)CO", "assay": "monotherapy, refers to: headache", "test system": "human patients", "setting": "oral, dose not given, grade 1, phase I A", "quantity": "patients with treatment-related adverse event", "result": "11.9%"}
{"Compound": "NC(=O)[C@@H](CCCCNC(=O)CNC(=O)CCC(=O)NCCc1c[nH]cn1)NC(=O)[C@@H](CCC(=O)O)NC(=O)[C@@H](CCCCNC(=O)CNC(=O)CCC(=O)NCCc1c[nH]cn1)NC(=O)[C@@H](Cc1ccc(O)cc1)NC(=O)CN1CCN(CC(=O)O)CCN(CC(=O)O)CCN(CC(=O)O)CC1 [indium-111 labelled]", "assay": "SPECT", "test system": "human, CEACAM5-expressing tumours, tumour", "setting": "intravenous, dose not given, 24 h, added: TF2 pretargeting 75 mg", "quantity": "tumour activity concentration", "result": "4.4 %ID/kg"}
{"Compound": "C=CC(=O)Nc1cc(Nc2nccc(-c3cn(C4CC4)c4ccccc34)n2)c(OC)cc1NC", "assay": "radio-HPLC, co-eluting peaks pooled", "test system": "human male, urine", "setting": "oral, 110 mg, 0 to 96 h, sample holds 4.16% dose", "how to read": "reference: dose", "quantity": "excreted amount", "result": "0.07%"}
{"Compound": "NC(=O)c1c(F)ccc(OCc2nc3cc(Cl)cnc3s2)c1F", "test system": "mouse, plasma", "setting": "intravenous, 3 mg/kg", "quantity": "C0", "result": "3700 ng/mL"}
{"Compound": "O=C([O-])CN1CCN(CC(=O)[O-])CCN(CC(=O)NC[C@H]2CC[C@H](C(=O)N[C@H](Cc3cnc4ccccc4c3)C(=O)NCCCC[C@H](NC(=O)N[C@@H](CCC(=O)O)C(=O)O)C(=O)O)CC2)CCN(CC(=O)[O-])CC1.[64Cu+2]", "assay": "PET/CT dosimetry OLINDA/EXM", "test system": "healthy volunteers, kidneys", "setting": "up to 24 h post-injection", "quantity": "absorbed dose", "result": "0.165 mGy/MBq"}
{"Compound": "COCCOCCOCCOCCC(=O)NCc1cc(CNC(=O)CCOCCOCCOCCOC)cc(-c2cc3cc4nc(c(-c5ccc(CCC(=O)O)cc5)c5[nH]c(cc6nc(c(OC)c2[nH]3)CC6(C)C)cc5-c2cc(CNC(=O)CCOCCOCCOCCOC)cc(CNC(=O)CCOCCOCCOCCOC)c2)CC4(C)C)c1", "test system": "water with 5% DMF", "setting": "room temperature", "quantity": "kf^−1", "result": "34 ns"}
{"Compound": "COc1ccc(-c2csc(N/N=C(\\C)c3cc(O)cc(O)c3)n2)cc1", "assay": "LC-MS/MS", "test system": "rat plasma", "setting": "3.75 ng/mL, 45 days, long-term storage at -70 °C", "quantity": "concentration after storage", "result": "3.53 ng/mL"}
{"Compound": "Cn1c(=O)oc2ccc(-c3ccc(CC(C#N)NC(=O)C4CNCCCO4)c(F)c3)cc21 (centres unmarked)", "test system": "human, plasma", "setting": "once daily for 28 days, multiple ascending dose", "quantity": "half-life", "result": "~26 h"}
{"Compound": "CN(C)c1cc(CN2CCCCC2)c(O)c2c1C[C@H]1C[C@H]3[C@H](N(C)C)C(O)=C(C(N)=O)C(=O)[C@@]3(O)C(O)=C1C2=O", "test system": "cynomolgus monkey, plasma", "setting": "oral, 5 mg/kg", "quantity": "Cmax", "result": "210 ng/mL"}
{"Compound": "N=C(N)NCCC[C@@H]1NC(=O)[C@H](Cc2c[nH]c3ccccc23)NC(=O)[C@@H](CC2CCCCC2)NC(=O)[C@@H]2CCCN2C(=O)[C@@H](NC(=O)CCc2ccccc2)CCCNC1=O", "test system": "C57BL/6J mice, brain", "setting": "subcutaneous, 1 mg/kg", "quantity": "absorption half-life", "result": "0.295 h"}
{"Compound": "COc1cc(N(C)CCN(C)C)c(NC(=O)CCSCC(NC(C)=O)C(=O)O)cc1Nc1nccc(-c2cn(C3CC3)c3ccccc23)n1 (centres unmarked)", "assay": "radio-HPLC", "test system": "human, feces", "setting": "48 to 96 h, sample holds 20.06% dose", "how to read": "reference: dose", "quantity": "excreted amount", "result": "0.61%"}
{"Compound": "N#Cc1cnc2cc(OCC3CCNCC3)c(F)cc2c1Nc1cc(F)c(OCc2cccc(Cl)n2)cc1Cl", "test system": "male Sprague-Dawley rat, plasma", "setting": "oral, 30 mg/kg", "quantity": "Tmax", "result": "3 h"}
{"Compound": "O=C(O)c1cccc(S(=O)(=O)Nc2ccccc2)c1", "test system": "human, normal liver function, plasma", "setting": "intravenous, 400 mg/m^2 belinostat, cycle 1 day -7, geometric mean", "how to read": "reference: metabolite over belinostat", "quantity": "AUC(0-inf) metabolic ratio", "result": 1.24}
{"Compound": "CCc1c2c(nc3ccc(O)cc13)-c1cc3c(c(=O)n1C2)COC(=O)[C@]3(O)CC", "test system": "human patients, plasma", "setting": "intravenous, 12 mg/m2 of parent drug", "quantity": "Tmax", "result": "1.5 h"}
{"Compound": "NC(=O)[C@@H](Cc1ccccc1)N[11C](=O)OCc1ccccc1", "test system": "male Wistar rats, plasma", "setting": "intravenous, 45 min", "quantity": "intact tracer", "result": "37% and 36.6%"}
{"Compound": "CCCCCc1cn(CCCCCCCCCCCOP(=O)([O-])OCC[N+](C)(C)C)nn1", "assay": "hemolysis", "test system": "human red blood cells", "setting": "1 h, 37 °C", "quantity": "HC50", "result": "> 100 µM"}
{"Compound": "CC(C)CCCC(C)CCCC(C)CCOC1O[C@H](CO)[C@@H](O)[C@H](O)[C@H]1O (some centres unmarked)", "assay": "drop shape analysis", "test system": "water/n-octane", "setting": "solubility limit, 100 s, room temperature", "quantity": "interfacial tension", "result": "7.3 mN/m"}
{"Compound": "COc1cc(OC)cc(C2=C3C(C)=C(I)C(/C=C/c4c[nH]c5ccccc45)=[N+]3[B-](F)(F)n3c(/C=C/c4c[nH]c5ccccc45)c(I)c(C)c32)c1", "test system": "DMSO", "how to read": "reference: methylene blue", "quantity": "fluorescence quantum yield", "result": 0.1}
{"Compound": "CC[C@H](C)[C@H](NC(=O)[C@H](CC(C)C)NC(=O)[C@H](Cc1c[nH]c2ccccc12)NC(=O)[C@H](C)NC(=O)[C@@H](NC(=O)[C@H](Cc1ccccc1)NC(=O)[C@H](CC(=O)O)NC(=O)[C@H](CCCNC(=N)N)NC(=O)[C@H](C)NC(=O)[C@H](C)NC(=O)[C@H](CC(C)C)NC(=O)[C@H](C)NC(=O)[C@H](CC(=O)O)NC(=O)[C@H](CC(C)C)NC(=O)[C@@H](NC(=O)[C@@H](NC(=O)[C@H](C)NC(=O)[C@H](CC(C)C)NC(=O)[C@H](CCC(=O)O)NC(=O)[C@H](CO)NC(=O)[C@H](CO)NC(=O)[C@H](Cc1ccccc1)NC(=O)[C@@H](NC(=O)CNC(=O)[C@H](CCC(=O)O)NC(=O)CNC(=O)[C@@H](N)Cc1cnc[nH]1)[C@@H](C)O)[C@@H](C)O)[C@@H](C)CC)[C@@H](C)CC)C(=O)N[C@@H](C)C(=O)N[C@H](C(=O)N[C@@H](CCCCN)C(=O)N[C@H](C(=O)N[C@H](C(=O)N[C@@H](CC(=O)O)C(=O)N[C@@H](CCCCN)C(=O)N[C@@H](CCCCN)C(=O)N[C@@H](CCCCN)C(=O)N[C@@H](CCCCN)C(=O)N[C@@H](CCCCN)C(=O)N[C@@H](CCCCN)C(N)=O)[C@@H](C)O)[C@@H](C)CC)[C@@H](C)O", "test system": "healthy humans, plasma", "setting": "subcutaneous, 5 mg once weekly, 6 doses, day 36, geometric mean", "quantity": "AUC(0-last)", "result": "0.119 µM·h"}
{"Compound": "CC(=O)N[C@H](CCCCN)C(=O)N[C@H](CC(C)C)C(=O)N[C@H](CCCCN)C(=O)N[C@H](CO)C(=O)N[C@H](CC(C)C)C(=O)N[C@H](CC(C)C)C(=O)N[C@H](CCCCN)C(=O)N[C@@H](C(=O)N[C@H](CC(C)C)C(=O)N[C@H](CO)C(=O)N[C@H](CCCCN)C(=O)N[C@H](C)C(=O)N[C@H](CCCCN)C(=O)N[C@H](CCCCN)C(=O)N[C@H](CCCCN)C(=O)N[C@H](CCCCN)C(=O)N[C@H](CC(C)C)C(=O)N[C@H](CCCCN)C(=O)N[C@@H](C(=O)N[C@H](CC(C)C)C(=O)N[C@H](CC(C)C)C(=O)N[C@H](CCCCN)C(=O)N[C@H](C)C(=O)N[C@H](CC(C)C)C(=O)N[C@H](CO)C(=O)N[C@H](CCCCN)C(N)=O)[C@H](C)O)[C@H](C)O", "assay": "circular dichroism", "test system": "aqueous buffer", "setting": "pH 7.0, 5 °C", "how to read": "reference: reference peptide in TFE", "quantity": "helical content", "result": "9%"}
{"Compound": "C[C@H](NC(=O)COC(=O)[C@H](C)NC(=O)CO)C(=O)O", "test system": "water", "setting": "pH 4, 25 °C", "quantity": "depolymerization half-life", "result": "146 h"}
{"Compound": "CCCC[C@@H]1NC(=O)[C@@H](NC(=O)[C@H](CCC(=O)O)NC(=O)CNC(=O)CN2CCN(CC(=O)O)CCN(CC(=O)O)CCN(CC(=O)O)CC2)CCCCNC(=O)C[C@@H](C(N)=O)NC(=O)[C@H](C(C)C)NC(=O)[C@@H]2CCCN2C(=O)[C@H](CCCNC(=N)N)NC(=O)CNC(=O)[C@H](Cc2c[nH]c3ccccc23)NC(=O)[C@H](CCCNC(=N)N)NC(=O)[C@@H](Cc2ccccc2)NC(=O)[C@H](Cc2c[nH]cn2)NC(=O)[C@H](CCC(=O)O)NC1=O [gallium-67 labelled]", "test system": "C57 mice with B16/F1 melanoma", "setting": "intravenous, 0.037 MBq/mouse, 2 h", "how to read": "reference: tumour over liver", "quantity": "tumour to liver ratio", "result": 56.2}
